Earlier results, collected from citations in different studies.
± marks the error that the study gave.
Chain of UniProt P05106 (whole entry, looked up): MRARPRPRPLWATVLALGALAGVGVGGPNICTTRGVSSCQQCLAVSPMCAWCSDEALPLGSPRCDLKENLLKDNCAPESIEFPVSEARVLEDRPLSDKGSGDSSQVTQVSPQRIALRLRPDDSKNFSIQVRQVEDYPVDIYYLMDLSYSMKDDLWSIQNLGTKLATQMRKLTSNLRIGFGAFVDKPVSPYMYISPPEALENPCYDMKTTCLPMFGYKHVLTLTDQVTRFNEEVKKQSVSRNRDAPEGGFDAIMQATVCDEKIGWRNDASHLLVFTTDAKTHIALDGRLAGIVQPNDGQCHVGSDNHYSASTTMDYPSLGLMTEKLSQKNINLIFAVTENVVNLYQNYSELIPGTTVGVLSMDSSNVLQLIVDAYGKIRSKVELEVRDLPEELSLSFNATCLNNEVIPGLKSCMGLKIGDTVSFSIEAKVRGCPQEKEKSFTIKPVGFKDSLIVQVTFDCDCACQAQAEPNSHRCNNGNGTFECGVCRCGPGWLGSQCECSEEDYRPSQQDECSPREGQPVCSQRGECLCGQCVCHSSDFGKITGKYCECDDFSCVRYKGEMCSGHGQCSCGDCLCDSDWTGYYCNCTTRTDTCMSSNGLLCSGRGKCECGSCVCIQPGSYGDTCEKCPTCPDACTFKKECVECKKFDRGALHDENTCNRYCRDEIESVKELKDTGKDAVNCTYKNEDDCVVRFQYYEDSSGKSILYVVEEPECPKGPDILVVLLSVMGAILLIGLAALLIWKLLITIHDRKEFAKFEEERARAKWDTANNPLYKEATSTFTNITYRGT
Chain of UniProt P06756 (whole entry, looked up): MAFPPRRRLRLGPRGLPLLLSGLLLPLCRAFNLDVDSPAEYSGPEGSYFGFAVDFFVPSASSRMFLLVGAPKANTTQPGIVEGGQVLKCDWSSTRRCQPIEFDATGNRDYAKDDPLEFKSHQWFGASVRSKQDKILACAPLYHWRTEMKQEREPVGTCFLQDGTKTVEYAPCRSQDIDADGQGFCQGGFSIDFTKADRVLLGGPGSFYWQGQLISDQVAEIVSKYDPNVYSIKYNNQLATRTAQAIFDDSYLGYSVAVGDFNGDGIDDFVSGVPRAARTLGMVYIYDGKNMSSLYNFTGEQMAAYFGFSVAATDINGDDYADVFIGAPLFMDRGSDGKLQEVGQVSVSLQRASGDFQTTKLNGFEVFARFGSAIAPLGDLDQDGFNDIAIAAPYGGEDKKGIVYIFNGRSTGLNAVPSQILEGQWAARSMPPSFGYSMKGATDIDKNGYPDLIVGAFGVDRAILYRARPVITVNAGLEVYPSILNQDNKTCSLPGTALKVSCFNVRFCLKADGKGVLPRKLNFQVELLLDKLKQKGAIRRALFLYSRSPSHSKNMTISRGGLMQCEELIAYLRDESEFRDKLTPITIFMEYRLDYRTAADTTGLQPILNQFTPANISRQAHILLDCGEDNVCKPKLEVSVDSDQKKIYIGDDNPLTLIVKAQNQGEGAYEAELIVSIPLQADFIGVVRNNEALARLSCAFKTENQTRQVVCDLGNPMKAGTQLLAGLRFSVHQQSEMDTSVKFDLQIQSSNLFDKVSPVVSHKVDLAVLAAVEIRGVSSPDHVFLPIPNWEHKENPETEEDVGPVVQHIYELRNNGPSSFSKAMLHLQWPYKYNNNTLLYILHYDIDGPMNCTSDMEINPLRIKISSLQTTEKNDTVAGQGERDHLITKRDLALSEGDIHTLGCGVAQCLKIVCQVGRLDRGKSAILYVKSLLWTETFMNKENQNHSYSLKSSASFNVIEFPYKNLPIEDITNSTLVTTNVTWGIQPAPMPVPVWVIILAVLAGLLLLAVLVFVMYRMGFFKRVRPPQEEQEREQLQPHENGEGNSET

Substance | tested on | observed | technique | measurement | value
RING domain of UHRF1 (Homo sapiens, UniProt Q96T88) | UBE2D (UniProt P51668) | – | Kd | Kd | 75000 nM
fluorescein-c(RGDyK) | Integrin alpha-V/beta-3 (Homo sapiens, UniProt P05106+P06756) | binding | – | Kd | 0.5 ± 0.1 nM
calcitonin gene-related peptide | – | – | radioimmunoassay | plasma half-life | 6.9 to 26.4 min
CC(=O)C1=C(C)N(c2cccc(C(F)(F)F)c2)C(=O)N[C@H]1c1ccc(C#N)nc1 | ELANE | – | biochemical | IC50 | > 2000 nM
trastuzumab Fab | HER2 | – | – | Kd | 0.5 nM

A few entries again:
Substance | tested on | observed | technique | measurement | value
RING domain of UHRF1 (Homo sapiens, UniProt Q96T88) | UBE2D (UniProt P51668) | – | Kd | Kd | 75000 nM
